Experimental data gathered from unrelated publications.
Each line is one published result; not all experiments were run side by side. ± gives the spread as reported.
Target: Alpha-1A adrenergic receptor (ADRA1A, Homo sapiens, UniProt P35348)
One construct used (P35348 1-466): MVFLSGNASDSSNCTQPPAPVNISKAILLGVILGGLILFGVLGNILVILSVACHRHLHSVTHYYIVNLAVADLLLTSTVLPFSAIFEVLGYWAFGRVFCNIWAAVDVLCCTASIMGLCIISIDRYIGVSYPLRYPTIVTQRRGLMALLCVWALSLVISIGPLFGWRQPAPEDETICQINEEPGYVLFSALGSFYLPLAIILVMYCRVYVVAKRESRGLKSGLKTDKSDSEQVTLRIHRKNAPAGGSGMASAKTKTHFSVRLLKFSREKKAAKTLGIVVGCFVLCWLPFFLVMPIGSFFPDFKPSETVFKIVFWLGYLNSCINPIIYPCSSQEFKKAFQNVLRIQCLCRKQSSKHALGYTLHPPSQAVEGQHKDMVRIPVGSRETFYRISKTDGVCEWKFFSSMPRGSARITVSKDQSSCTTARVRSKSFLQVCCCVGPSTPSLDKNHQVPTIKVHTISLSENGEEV

Structure (SMILES) = CC(C)Cn1c(SCC(=O)N2CCc3ccccc3C2)nc2cc(Cl)ccc2c1=O; assay = ligand displacement, radioligand; setting = 10 µM; quantity = inhibition; value = -15%
Structure (SMILES) = COc1ncc2nc(C)n(Cc3ncc(S(N)(=O)=O)cc3F)c2c1-c1ccccc1; assay = antagonist, cell-based; setting = 10 µM; quantity = inhibition; value = -0.457%
Structure (SMILES) = O=C1c2sc(-c3ccc(N4CCC(CO)CC4)nc3F)nc2CCN1c1cccnc1; assay = ligand displacement, radioligand; setting = 1 µM; quantity = inhibition; value = 0%
Structure (SMILES) = Nc1c(NCc2ccccc2)c2ccccc2oc1=O; assay = intracellular Ca2+ mobilization, agonist; system = COS-7; setting = 500 µM; scale = reference: 3 µM ionomycin; quantity = agonist activity; value = 6.24 ± 2.13%
Structure (SMILES) = Cn1ccc2cc(-n3c(=O)[nH]c4sc5c(c4c3=O)CCCC5)ccc21; assay = cell-free assay, radioligand; setting = 10 µM; quantity = inhibition; value = 6%
Structure (SMILES) = Cc1cc2oc(=O)cc(Cn3ccnc3)c2cc1O; assay = intracellular Ca2+ mobilization, agonist; system = COS-7; setting = 500 µM; scale = reference: 3 µM ionomycin; quantity = agonist activity; value = 4.9 ± 1.05%
Structure (SMILES) = CNC[C@H](O)c1cccc(OCCOCCOCC#Cc2cccc(Cn3c(-c4ccccc4)c(-c4ccccc4)c4c(=N)n([C@H]5CC[C@H](O)CC5)cnc43)c2)c1; assay = agonist, immunoblot, measured: phospho-ERK1/2; system = HEK293 stably transfected with ADRA1A; setting = 10 µM; quantity = time to peak ERK phosphorylation; value = 10 min
Structure (SMILES) = COc1ccc(C(=O)Nc2c(-c3cccs3)nc3ccccn23)cc1; assay = ligand displacement, radioligand; setting = 10 µM; quantity = inhibition; value = < 50%
Structure (SMILES) = COc1ccc2c(CNc3ccc(C)cc3)cc(=O)oc2c1; assay = intracellular Ca2+ mobilization, agonist; system = COS-7; setting = 500 µM; scale = reference: 3 µM ionomycin; quantity = agonist activity; value = 29.2 ± 2.07%
